Experimental data of several laboratories.
Protocols differ between the studies behind these lines. ± gives the spread as reported.
Cell line: LNCaP

SMILES | assay | setting | scale | endpoint | result
Cc1ccc(C(C)C)cc1.Cc1ncc(CO)c(C=NNC2=Nc3ccccc3-c3[nH]c4ccc(Br)cc4c3C2)c1O.[Cl-].[Cl][Ru+] | cell growth or viability, MTT | 96 h |  | IC50 | 5.2 µM
COC1=C(OC)C(O)C(CC=C(C)CCC=C(C)CCC=C(C)C(=O)O)C(C)C1=O (stereo not drawn) | cell growth or viability, MTS | 72 h |  | IC50 | > 25 µM
COc1ccc(CCNc2ncnc3sc(C)cc23)cc1OC | ChIP-qPCR, refers to: FOXM1, CDK1, CDKN1A promoters | 4 µM, 12 h |  | FOXA1 promoter recruitment | decreased
C[N+]1(CC(=O)OC2CCCCCCCCCCC2)CCCCC1 | cell viability, CellTiter Blue | 96 h |  | ED20 | 2.6 µM
CC1(CO)CCCC2(C)C1CCC1(C)c3cocc3CCC12 (stereo not drawn) | qRT-PCR, refers to: AR | 10 µM, absence of androgen |  | mRNA level | decreased
O=C(O)CC[C@H](NC(=O)N[C@@H](CCCCNC(=O)CCCCC[C@H](NC(=O)CCS[C@@H]1O[C@H](CO)[C@H](O)[C@H](O)[C@H]1O)C(=O)NCCCC[C@@H](NC(=O)[C@@H](Cc1ccccc1)NC(=O)[C@@H](Cc1ccc(O)c(I)c1)NC(=O)CCC(C(=O)O)N1CCN(CC(=O)O)CCN(CC(=O)O)CCN(CC(=O)O)CC1)C(=O)O)C(=O)O)C(=O)O (stereo partly drawn) [lutetium-177 labelled] |  | concentration not given, 60 min | reference: applied | internalized activity | 11.3%
Cc1cc(C(C)N(CCOC(=O)[C@H](CC(C)C)NC(=O)[C@@H](N)CO)c2ccccc2)c2nc(N3CCOCC3)cc(=O)n2c1 (stereo partly drawn) | cellular uptake of compound, LC-MS/MS | 0.5 µM, 1 h, 37 °C, together with: Ser-Leu 10 µM |  | inhibition | 75%
Cc1ccc(C(C)C)cc1.Oc1ccccc1C=NNC1=Nc2ccccc2-c2[nH]c3ccc(Br)cc3c2C1.[Cl-].[Cl][Os+] | cell growth or viability, MTT | 96 h |  | IC50 | 5.3 µM
O=[N+]([O-])c1ccc(/N=N/c2ccc(O)c(O)c2)cc1 | cell growth or viability, resazurin | 72 h |  | IC50 | 3.24 µM
CC1=CC(C)=[N+]2C1=C(CCCC(=O)NCCCCCC(=O)NCCCC[C@H](NC(=O)N[C@@H](CCC(=O)O)C(=O)O)C(=O)O)c1c(C)cc(C)n1[B-]2(F)[18F] (stereo partly drawn) | PSMA-mediated internalization | 15 min, together with: 2-PMPA blocking |  | internalized fraction | 2.24%
CCC(CC)c1nc(-c2ccc(O)cc2O)cs1 | cell growth or viability, resazurin | 72 h |  | IC50 | 13.8 µM
O=C(O)CCC(NP(=O)(O)OCCC[C@@H](NC(=O)CC[C@H](NC(=O)CCCCCNC(=O)c1ccc([18F])cc1)C(=O)O)C(=O)O)C(=O)O (stereo partly drawn) |  | concentration not given, 4 h |  | cell uptake | 8.74 ± 2.67%
